Measured values pooled from the literature.
Protocols differ between the studies behind these lines. Numbers after ± are the reported error.

Molecule | test | system | setting | IC50 [µM]
CCCCCC(O)C=CC=O (stereo not drawn) | [3H]dopamine uptake, inhibitor | rat striatal synaptosomes | 15 min, 30 °C | 441
NC[C@H]1O[C@H](O[C@H]2[C@H](O)[C@@H](O[C@H]3O[C@H](CO)[C@@H](O)[C@H](N)[C@H]3O)[C@H](N)C[C@@H]2N)[C@H](N)C[C@@H]1O | luciferase synthesis, inhibitor, coupled transcription-translation | M. smegmatis 70S ribosomes, human hybrid | 60 min, 37 °C | 21
C=C(C)[C@@H]1CCC(CO)=C[C@H]1c1c(O)cc(CCCCC)cc1O | nicotine demethylation to nornicotine, inhibitor | pooled human liver microsomes | with: nicotine 500 µM | 0.74 ± 0.24
C/C(=C\Cc1c(O)c(Cl)c(C)c(C=O)c1O)CC/C=C(\C)[C@@H]1CC(=O)C(C)(C)O1 | succinate-dependent oxygen uptake, inhibitor | rat liver mitochondria | with: succinate 15 mM | 16
NC[C@@H]1O[C@H](O[C@H]2[C@@H](O)[C@H](O[C@@H]3[C@@H](O)[C@H](N)C[C@H](N)[C@H]3O[C@H]3O[C@H](CO)[C@@H](O)[C@H](O)[C@H]3N)O[C@@H]2CO)[C@H](N)[C@@H](O)[C@@H]1O | [14C]-phenylalanine incorporation, inhibitor, (UUU)12-directed cell-free translation | M. smegmatis 70S ribosomes, human cytosolic hybrid decoding site | 60 min, 37 °C | > 500
HPVHHYQ-NH2 (C-amide) | in vitro translation, inhibitor, luciferase reporter | peptide, Escherichia coli S30 extract | 37 °C | ~600
O=CC1([C@@H]2CC(=O)N(c3ccccc3)C2=O)CCCCC1 | DPPH radical scavenging | – | – | 298
N.N.[Cl][Pt][Cl] | angiogenesis, inhibitor | chick chorioallantoic membrane | 48 h, with: VEGF and bFGF | 18.2 ± 2.1
CCN[C@@H]1C[C@H](N)[C@@H](O[C@H]2OC(CN)=CC[C@H]2N)[C@H](O)[C@H]1O[C@H]1OC[C@](C)(O)[C@H](NC)[C@H]1O | [14C]-phenylalanine incorporation, inhibitor, (UUU)12-directed cell-free translation | M. smegmatis 70S ribosomes, Leishmania/Trypanosoma hybrid decoding site | 60 min, 37 °C | > 500
CN.Cc1c(C)c2c(c(C)c1O)CCC(C)(C(=O)O)O2 (stereo not drawn) | DPPH radical scavenging | methanol | 10 min, with: DPPH 70 µM | 60
N[C@@H](CO)C(=O)N[C@@H](Cc1c[nH]cn1)C(=O)N[C@@H](CCC(=O)O)C(=O)O | platelet aggregation, inhibitor | rat platelet-rich plasma | 5 min preincubation, 37 °C, with: ADP 0.1 mM | 214
CN[C@@H]1[C@@H](O)[C@@H](O[C@@H]2[C@@H](O)[C@H](O[C@H]3O[C@H]([C@@H](C)O)[C@@H](O)[C@H](O)[C@H]3N)[C@@H](N)C[C@H]2N)OC[C@]1(C)O | luciferase synthesis, inhibitor, coupled transcription-translation | M. smegmatis 70S ribosomes, human hybrid | 60 min, 37 °C | 0.8

For quick reference, copied from above:
Molecule | test | system | setting | IC50 [µM]
CN[C@@H]1[C@@H](O)[C@@H](O[C@@H]2[C@@H](O)[C@H](O[C@H]3O[C@H]([C@@H](C)O)[C@@H](O)[C@H](O)[C@H]3N)[C@@H](N)C[C@H]2N)OC[C@]1(C)O | luciferase synthesis, inhibitor, coupled transcription-translation | M. smegmatis 70S ribosomes, human hybrid | 60 min, 37 °C | 0.8
